Measured values collected from several papers.
Lines come from different studies, so protocols differ. ± gives the spread as reported.

CCCCC/C=C\CCCO[Si](CCCCN(C)CCO)(OCCC/C=C\CCCCC)OCCC/C=C\CCCCC — zeta potential (pH 5.5, formulated): 3.28 mV
O=C(c1ccccc1)N1C(c2ccc(OCC3CCN(CCCF)C3)cc2)c2ccc(O)cc2CC12CC2 (centres unmarked) — AUC extrapolated (C57BL/6J mice, plasma; intraperitoneal, 25 mg/kg): 0.345%
CN1CC(COc2cccc3c(NCc4ccco4)nc(Cl)nc23)OC1=O (centres unmarked) — tissue/plasma ratio (C57BL/6 mouse, heart; oral, 30 mg/kg, 0.5 h; relative to: heart over plasma): 0.462
CN(C)S(=O)(=O)c1ccc(S(=O)(=O)N2CCC(n3c(=O)[nH]c4ccccc43)CC2)cc1 — solubility (HPLC; 20% Intralipid; 24 h, 20 °C): 50 µg/mL
CCCC[C@H](OC(C)=O)c1ccccc1C(=O)O — half-life (beagle dog, both sexes, whole blood; intravenous, 1.5 mg/kg, single dose, fitted within 1 h): 18.6 ± 6 min
Cc1cc(-c2ccc(C(=O)[C@@H]3CCCC[C@H]3C(=O)Nc3cnn4c3C(=O)NCC4)cc2)[nH]n1 — recovery of radioactivity per interval (human, faeces; oral, 200 mg, 144-168 h; relative to: dose): 0.4%
C/C(N)=N/C(=N\S(=O)(=O)c1ccc(C(F)(F)F)cc1)N1C[C@H](c2ccccc2)C(c2ccc(Cl)cc2)=N1 — tissue/plasma ratio (C57BL/6 mouse male, skeletal muscle; intravenous, 10 mg/kg; relative to: tissue AUC(0-last) over plasma): ~2
COc1cccc(OC)c1-c1cc(C(=O)NC2(C(=O)O)C3CC4CC(C3)CC2C4)nn1-c1ccc(C(=O)NCCNC(=O)[C@H](CCCCNC(=O)[C@H](CC(C)C)NC(=O)C2OC2C(=O)O)NC(=O)CN2CCN(CC(=O)[O-])CCN(CC(=O)[O-])CCN(CC(=O)[O-])CC2)cc1C(C)C.[177Lu+3] (mixture of isomers) — tumour-to-small intestine ratio (mouse HT-29 xenograft; 24 h, biodistribution; relative to: tumour over small intestine): 15.1
CC(C)(O)c1ncc([S@](N)(=O)=NC(=O)Nc2c3c(cc4c2CCC4)CCC3)s1 — subjects with TEAEs (measured: any system organ class; healthy human volunteers; oral, 300 mg single dose, spray-dried dispersion suspension): 50%
COc1cccc(OC)c1-c1cc(C(=O)NC2(C(=O)O)C3CC4CC(C3)CC2C4)nn1-c1ccc(C(=O)N(C)CCCN(C)C(=O)[C@H](CCCCNC(=O)[C@H](CC(C)C)NC(=O)C2OC2C(=O)O)NC(=O)CN2CCN(CC(=O)[O-])CCN(CC(=O)[O-])CCN(CC(=O)[O-])CC2)cc1C(C)C.[177Lu+3] (mixture of isomers) — tumour-to-large intestine ratio (mouse HT-29 xenograft; 72 h, biodistribution; relative to: tumour over large intestine): 11.9
C=CC[C@@H]1/C=C(\C)C[C@H](C)C[C@H](OC)[C@H]2O[C@@](O)(C(=O)C(=O)N3CCCC[C@H]3C(=O)O[C@H](/C(C)=C/[C@@H]3CC[C@@H](O)[C@H](OC)C3)[C@H](C)[C@@H](O)CC1=O)[C@H](C)C[C@@H]2OC — dose-normalized AUC(0-12h) (kidney transplant recipients, whole blood; oral, dose not given, all patients, limited sampling): 137 ng·h/mL
COc1cccc(OC)c1-c1cc(C(=O)NC2(C(=O)O)C3CC4CC(C3)CC2C4)nn1-c1ccc(C(=O)N(C)CCOCCOCCN(C)C(=O)[C@H](CCCCNC(=O)[C@H](CC(C)C)NC(=O)C2OC2C(=O)O)NC(=O)CN2CCN(CC(=O)[O-])CCN(CC(=O)[O-])CCN(CC(=O)[O-])CC2)cc1C(C)C.[177Lu+3] (mixture of isomers) — tumour-to-lung ratio (mouse, HT-29 xenograft; 24 h post injection, biodistribution; relative to: tumour over lung uptake): 3.7
COc1ccc(C([O-])=CC(=O)c2ccc(C(C)(C)C)cc2)cc1.[Ru+2].c1ccc(-c2ccccn2)nc1.c1ccc(-c2ccccn2)nc1 — toxicity (zebrafish larvae; 10 µM): 100%
CCCC[C@H](NC(=O)CNC(=O)CNC(=O)[C@H](CCCCNC(=O)[C@H](CC(=O)O)NC(=O)C(C)c1ccc(CC(C)C)cc1)NC(=O)CN1CCN(CC(=O)O)CCN(CC(=O)O)CCN(CC(=O)O)CC1)C(=O)N[C@H]1CC(=O)NCCCC[C@@H](C(N)=O)NC(=O)[C@H](Cc2c[nH]c3ccccc23)NC(=O)[C@H](CCCNC(=N)N)NC(=O)[C@@H](Cc2ccccc2)NC(=O)[C@H](Cc2c[nH]cn2)NC1=O (some centres unmarked) [lutetium-177 labelled] — tissue uptake (C57 mice, tumour-bearing, blood; intravenous, 0.037 MBq, 0.5 h): 7.22 ± 0.9 %ID/g
CCCCN1C(=O)c2cccc3c(NCCCN4CCOCC4)ccc(c23)C1=O — fluorescence lifetime (water; pH 6.0): 5.4 ns
O=c1c(O)c(-c2ccc(N(c3ccccc3)c3ccccc3)cc2)oc2cc3ccccc3cc12 — CO yield (DMSO; added: visible light 445-465 nm): 1.02
Nc1nonc1-c1nnc2c(n1)-c1ccccc1C2=O — AUC (ICR mice, plasma; intraperitoneal, 30 mg/kg): 13.1 ± 0.85 µM·h
O=C(Nc1ccccc1)C1(C(F)(F)F)CCC1 — solubility (PBS; 2 h, pH 7.4, 25 °C): ≥ 400 µM
CSCC[C@H](NC(=O)[C@H](CC(=O)O)NC(C)=O)C(=O)N[C@@H](Cc1ccc(O)cc1)C(=O)N[C@@H](Cc1ccc(O)cc1)C(=O)N[C@@H](CCCNC(=N)N)C(=O)N[C@@H](Cc1ccc(O)cc1)C(=O)N[C@@H](CC(N)=O)C(=O)NCC(=O)N[C@@H](CCCCN)C(=O)N[C@H](C(=O)N[C@@H](Cc1c[nH]c2ccccc12)C(=O)N[C@@H](Cc1c[nH]c2ccccc12)C(=O)N[C@@H](CCCNC(=N)N)C(=O)O)C(C)C — α-helix content (circular dichroism; free peptide in solution; concentration not given, 25 °C, no insulin present): 6.71%
CC[C@H](C)[C@H](NC(=O)[C@H](CC(N)=O)NC(=O)[C@@H](N)CCSC)C(=O)N[C@@H](CCSC)C(=O)N[C@@H](CC(=O)O)C(=O)N[C@@H](Cc1ccccc1)C(=O)N[C@@H](CC(N)=O)C(=O)N[C@H](C(=O)N[C@@H](CCCCN)C(=O)N[C@@H](CCCCN)C(=O)N[C@@H](CC(C)C)C(=O)N[C@@H](C)C(=O)N[C@@H](C)C(=O)N[C@@H](CC(=O)O)C(=O)N[C@@H](C)C(=O)NCC(=O)N[C@H](C(=O)N[C@@H](Cc1c[nH]c2ccccc12)C(=O)N[C@@H](CC(C)C)C(=O)N[C@@H](CO)C(=O)N[C@@H](CCCNC(=N)N)C(=O)N[C@@H](C)C(=O)N[C@H](C(=O)N[C@@H](CCC(N)=O)C(=O)N[C@@H](Cc1ccccc1)C(=O)N[C@H](C(=O)N[C@@H](CCC(=O)O)C(=O)N[C@@H](CCC(=O)O)C(=O)N[C@@H](CCCCN)C(=O)N[C@@H](CC(C)C)C(=O)NCC(=O)N[C@@H](CCC(N)=O)C(=O)N[C@@H](C)C(N)=O)[C@@H](C)O)C(C)C)[C@@H](C)O)C(C)C — helical content (circular dichroism; 100% DOPS liposomes; 1 mM lipid): 50%
CC(C)C[C@@H]1NC(=O)[C@H](C(C)C)NC(=O)[C@H](Cc2c[nH]c3ccccc23)NC(=O)[C@@H]2CSSC[C@H](NC(=O)[C@H](Cc3ccc(O)cc3)NC(=O)[C@H](C(C)C)NC(=O)[C@H](CCCNC(=N)N)NC(=O)CNC(=O)[C@H]3CCCN3C1=O)C(=O)N[C@@H](CCC(N)=O)C(=O)N1CCC[C@H]1C(=O)NCC(=O)N[C@@H](Cc1c[nH]c3ccccc13)C(=O)N2 — Papp A→B (Caco-2): 7.28 ×10⁻⁶ cm/s
C=CC(=O)Nc1cc(Nc2nccc(-c3cn(C)c4ccccc34)n2)c(OC)cc1N(C)CCNC — recovery (storage stability; human plasma; 5 h, -80 °C, medium QC level): 95.5%
CCC(CC)n1c(Cc2ccco2)nc2cc(C(=O)N[C@@H](CC(=O)O)c3ccccc3)ccc21 — AUC(0-inf) (male Sprague-Dawley rat, plasma; intraperitoneal, 10 mg/kg): 4940 ng·h/mL
O=C(Nc1cnccc1-c1ccc([18F])cc1)c1ccnc(NC(=O)C2CC2)c1 — mean SUV (ex vivo gamma counting; FVB/NJ mice, both sexes, left kidney; intravenous, 120 min): 0.55
O=C([O-])CN1CCN(CC(=O)[O-])CCN(CC(CCCc2ccccc2[N+](=O)[O-])N(CC(=O)[O-])CC(=O)[O-])CC1.[177Lu+3] (centres unmarked) — intact radiolabelled complex (TLC; human serum; 0 h, pH 7, 37 °C): 100 ± 0.1%
C=CC(=O)Nc1cc(Nc2nccc(-c3c[nH]c4ccccc34)n2)c(OC)cc1N(C)CCN(C)C — recovery (human plasma; 5 h, storage stability, LLOQ sample): 94.6%
Cc1ccc(CN2C(=O)/C(=N\c3ccc(Cl)cc3Br)c3ccccc32)cc1 — Lym% (mouse, blood; 100 mg/kg): 49.1 ± 6.16%
CCC(C(=O)Nc1ccc(C(N)=O)c(F)c1)n1cc(OC)c(-c2cc(Cl)ccc2-n2cc(C(F)(F)F)nn2)cc1=O (centres unmarked) — subjects with any adverse event (male humans; oral, 25 mg, fasted): 0%
O=C(Nc1cnccc1-c1ccc([18F])nc1)c1ccnc(NC(=O)C2CC2)c1 — SUV (FVB/NJ mouse, both sexes, brain; intravenous, 25 min, added: tariquidar 15 mg/kg iv): 0.16
CC(=O)N([O-])CCCCCNC(=O)CCC(=O)N([O-])CCCCCNC(=O)CCC(=O)N([O-])CCCCCN.[89Zr+4] — intact complex (radio-TLC; aqueous buffer; 7 d, pH 7.2, 37 °C, 89Zr-labelled complex, added: CoCl2 10-fold excess): 96.4 ± 1.4%
CCCCCCCCCCCCCCCC(=O)N[C@@H](CCCCN)C(=O)N[C@@H](CCCCN)C(=O)N[C@@H](CO)C(=O)N[C@@H](CCCNC(=N)N)C(=O)N[C@@H](C)C(=O)N[C@@H](CC(C)C)C(=O)N[C@@H](Cc1ccccc1)C(N)=O — clearance (human patients, plasma; intravenous, 0.5 mg/kg over 2 h): 77 mL/min
CC[C@H](C)[C@@H]1NC(=O)[C@H](Cc2ccc(O)cc2)NC(=O)CCCSC[C@@H](C(=O)N(CC(=O)N[C@@H](CC(C)C)C(=O)NCC(N)=O)Cc2ccc(F)cc2)NC(=O)[C@H](CC(N)=O)NC(=O)[C@H](CCC(N)=O)NC1=O — terminal half-life (healthy women; intranasal): ~30 min
COc1cccc(OC)c1-c1cc(C(=O)NC2(C(=O)O)C3CC4CC(C3)CC2C4)nn1-c1ccc(C(=O)N(C)CCOCCN(C)C(=O)[C@H](CCCCNC(=O)[C@H](CC(C)C)NC(=O)C2OC2C(=O)O)NC(=O)CN2CCN(CC(=O)[O-])CCN(CC(=O)[O-])CCN(CC(=O)[O-])CC2)cc1C(C)C.[177Lu+3] (mixture of isomers) — tumour-to-lung ratio (mouse, HT-29 xenograft; 4 h post injection, biodistribution; relative to: tumour over lung uptake): 4.99
C=C(NC(=O)c1csc(-c2nc3c(cc2O)-c2nc(cs2)C(=O)NC(C(C)O)C(=O)NC(=C(C)OC)c2nc(cs2)C(=O)NC2c4nc(cs4)C(=O)NC(COC(=O)c4c5c6c(cccc6n4O)COC(=O)C(OC4CC(C)(O)C(N(C)C)C(C)O4)C2OC5)c2nc-3cs2)n1)C(N)=O (centres unmarked) — AUC(0-t) (ICR mice, Streptococcus pneumoniae ATCC 49169 infected, immunocompromised, blood; intravenous, 2 mg/kg once daily): 0.036 µM·h
Cc1n[nH]c(C)c1CCCOc1cc(C(=O)NCCCCC(NC(=O)CN2CCN(CC(=O)[O-])CCN(CC(=O)[O-])CCN(CC(=O)[O-])CC2)C(=O)NCC2CCC(C(=O)NC(Cc3ccc4ccccc4c3)C(=O)NCCCCC(NC(=O)NC(CCC(=O)O)C(=O)O)C(=O)O)CC2)ccc1F.[68Ga+3] (centres unmarked) — maximum tumour uptake (micro-PET/CT; mouse 22Rv1 xenograft, tumour; 4 h post-injection): 18.1 ± 1.19 %ID/g
